# Measurements from different studies.
# Numbered parts are unrelated; each lists some results of a single study.
# Chain of UniProt O00750 (whole entry, looked up): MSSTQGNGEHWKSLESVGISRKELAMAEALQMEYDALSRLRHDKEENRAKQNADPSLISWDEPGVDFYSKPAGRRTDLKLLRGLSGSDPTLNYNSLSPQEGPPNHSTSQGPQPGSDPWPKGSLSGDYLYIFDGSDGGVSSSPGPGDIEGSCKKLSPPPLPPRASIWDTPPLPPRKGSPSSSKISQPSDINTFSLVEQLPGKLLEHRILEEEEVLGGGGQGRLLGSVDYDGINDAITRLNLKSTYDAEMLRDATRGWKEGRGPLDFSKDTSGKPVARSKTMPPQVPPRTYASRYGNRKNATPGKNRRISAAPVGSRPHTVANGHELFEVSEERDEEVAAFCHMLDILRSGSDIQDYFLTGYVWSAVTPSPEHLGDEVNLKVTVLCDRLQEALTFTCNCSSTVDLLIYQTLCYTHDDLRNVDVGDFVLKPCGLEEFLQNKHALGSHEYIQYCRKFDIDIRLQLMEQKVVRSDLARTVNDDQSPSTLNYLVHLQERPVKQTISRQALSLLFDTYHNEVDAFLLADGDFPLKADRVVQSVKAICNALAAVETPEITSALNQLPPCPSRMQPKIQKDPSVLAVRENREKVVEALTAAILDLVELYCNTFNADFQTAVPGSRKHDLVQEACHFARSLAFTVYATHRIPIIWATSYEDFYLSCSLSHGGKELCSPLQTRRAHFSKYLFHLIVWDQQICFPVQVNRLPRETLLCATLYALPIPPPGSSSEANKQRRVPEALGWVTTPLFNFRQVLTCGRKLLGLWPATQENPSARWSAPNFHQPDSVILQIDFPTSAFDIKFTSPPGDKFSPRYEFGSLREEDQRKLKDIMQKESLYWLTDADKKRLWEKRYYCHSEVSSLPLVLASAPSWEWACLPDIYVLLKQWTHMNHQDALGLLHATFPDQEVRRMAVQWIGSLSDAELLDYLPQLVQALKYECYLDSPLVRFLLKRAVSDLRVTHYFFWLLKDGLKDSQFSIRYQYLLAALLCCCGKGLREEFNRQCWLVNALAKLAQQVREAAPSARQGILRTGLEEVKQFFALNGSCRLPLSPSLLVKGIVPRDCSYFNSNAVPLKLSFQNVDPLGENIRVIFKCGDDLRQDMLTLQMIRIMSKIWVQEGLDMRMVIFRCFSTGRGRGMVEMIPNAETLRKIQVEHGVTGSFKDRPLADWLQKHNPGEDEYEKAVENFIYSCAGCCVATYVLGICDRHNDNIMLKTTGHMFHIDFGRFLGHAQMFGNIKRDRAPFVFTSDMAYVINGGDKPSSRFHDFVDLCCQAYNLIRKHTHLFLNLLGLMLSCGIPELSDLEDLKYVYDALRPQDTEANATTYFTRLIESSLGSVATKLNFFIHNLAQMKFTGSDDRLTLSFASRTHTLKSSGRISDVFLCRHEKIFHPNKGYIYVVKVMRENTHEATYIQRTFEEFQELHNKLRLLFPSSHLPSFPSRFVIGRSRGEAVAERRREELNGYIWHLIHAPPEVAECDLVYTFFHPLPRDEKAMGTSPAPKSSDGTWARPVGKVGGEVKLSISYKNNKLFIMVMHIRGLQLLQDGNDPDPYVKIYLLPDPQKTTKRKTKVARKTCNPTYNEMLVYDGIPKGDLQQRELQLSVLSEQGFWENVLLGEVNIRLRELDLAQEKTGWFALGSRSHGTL
# Chain of UniProt P10721 (whole entry, unmodified, looked up): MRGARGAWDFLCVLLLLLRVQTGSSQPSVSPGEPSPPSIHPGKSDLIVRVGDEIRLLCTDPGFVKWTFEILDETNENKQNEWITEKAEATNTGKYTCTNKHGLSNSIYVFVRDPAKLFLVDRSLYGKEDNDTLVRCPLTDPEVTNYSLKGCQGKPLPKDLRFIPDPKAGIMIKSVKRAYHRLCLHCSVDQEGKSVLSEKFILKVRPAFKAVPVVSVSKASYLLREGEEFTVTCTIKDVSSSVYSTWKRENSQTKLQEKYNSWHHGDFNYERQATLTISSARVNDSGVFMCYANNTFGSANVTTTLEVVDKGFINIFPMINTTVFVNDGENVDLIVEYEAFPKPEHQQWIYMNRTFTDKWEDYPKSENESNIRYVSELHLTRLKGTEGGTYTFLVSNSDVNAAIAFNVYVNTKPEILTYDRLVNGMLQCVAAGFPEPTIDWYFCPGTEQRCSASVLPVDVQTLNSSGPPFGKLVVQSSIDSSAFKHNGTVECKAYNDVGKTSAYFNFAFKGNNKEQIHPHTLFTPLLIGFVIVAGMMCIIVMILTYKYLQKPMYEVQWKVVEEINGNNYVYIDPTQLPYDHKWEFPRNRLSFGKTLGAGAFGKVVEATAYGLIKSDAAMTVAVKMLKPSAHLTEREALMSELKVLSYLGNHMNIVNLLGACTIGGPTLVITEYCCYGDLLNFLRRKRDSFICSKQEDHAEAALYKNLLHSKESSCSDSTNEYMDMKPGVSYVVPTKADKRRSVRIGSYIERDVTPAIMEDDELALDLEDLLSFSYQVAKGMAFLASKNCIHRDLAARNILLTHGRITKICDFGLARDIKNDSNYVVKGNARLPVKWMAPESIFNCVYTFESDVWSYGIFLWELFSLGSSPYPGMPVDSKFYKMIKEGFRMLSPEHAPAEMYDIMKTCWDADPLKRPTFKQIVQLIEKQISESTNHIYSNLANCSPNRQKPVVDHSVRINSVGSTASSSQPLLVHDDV
# Chain of UniProt Q15418 (whole entry, looked up): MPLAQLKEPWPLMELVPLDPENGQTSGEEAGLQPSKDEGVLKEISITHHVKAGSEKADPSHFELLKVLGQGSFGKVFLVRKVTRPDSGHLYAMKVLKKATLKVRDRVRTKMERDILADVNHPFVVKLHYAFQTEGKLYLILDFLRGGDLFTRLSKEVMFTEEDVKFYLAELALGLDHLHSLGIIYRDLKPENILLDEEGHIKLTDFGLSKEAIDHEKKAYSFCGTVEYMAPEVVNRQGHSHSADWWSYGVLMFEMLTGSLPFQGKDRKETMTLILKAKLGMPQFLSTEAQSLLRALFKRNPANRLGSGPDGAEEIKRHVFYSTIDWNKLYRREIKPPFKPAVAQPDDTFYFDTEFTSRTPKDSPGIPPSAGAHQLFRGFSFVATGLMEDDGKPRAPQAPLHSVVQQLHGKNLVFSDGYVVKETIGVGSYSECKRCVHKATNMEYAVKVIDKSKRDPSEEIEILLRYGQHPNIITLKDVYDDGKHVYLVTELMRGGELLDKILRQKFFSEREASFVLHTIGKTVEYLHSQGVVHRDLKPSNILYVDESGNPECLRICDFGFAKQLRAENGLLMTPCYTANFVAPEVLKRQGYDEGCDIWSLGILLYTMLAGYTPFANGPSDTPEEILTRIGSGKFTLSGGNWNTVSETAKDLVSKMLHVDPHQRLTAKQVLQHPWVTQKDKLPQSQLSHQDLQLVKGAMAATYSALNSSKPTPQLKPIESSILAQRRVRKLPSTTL
# Chain of UniProt O14757 (whole entry, looked up): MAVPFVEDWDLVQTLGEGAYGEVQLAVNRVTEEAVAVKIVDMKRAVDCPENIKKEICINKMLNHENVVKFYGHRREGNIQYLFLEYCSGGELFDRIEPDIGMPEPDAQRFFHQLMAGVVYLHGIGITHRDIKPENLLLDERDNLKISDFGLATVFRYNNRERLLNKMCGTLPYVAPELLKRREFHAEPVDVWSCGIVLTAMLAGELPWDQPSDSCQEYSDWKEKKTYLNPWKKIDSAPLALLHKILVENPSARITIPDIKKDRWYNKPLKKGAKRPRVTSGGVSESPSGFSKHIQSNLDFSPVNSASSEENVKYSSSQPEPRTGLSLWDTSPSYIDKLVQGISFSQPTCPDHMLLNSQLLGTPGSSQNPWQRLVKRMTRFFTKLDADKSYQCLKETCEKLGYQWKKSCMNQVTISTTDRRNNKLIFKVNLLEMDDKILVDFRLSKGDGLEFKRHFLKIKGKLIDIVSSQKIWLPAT
# Chain of UniProt P29317 (whole entry, looked up): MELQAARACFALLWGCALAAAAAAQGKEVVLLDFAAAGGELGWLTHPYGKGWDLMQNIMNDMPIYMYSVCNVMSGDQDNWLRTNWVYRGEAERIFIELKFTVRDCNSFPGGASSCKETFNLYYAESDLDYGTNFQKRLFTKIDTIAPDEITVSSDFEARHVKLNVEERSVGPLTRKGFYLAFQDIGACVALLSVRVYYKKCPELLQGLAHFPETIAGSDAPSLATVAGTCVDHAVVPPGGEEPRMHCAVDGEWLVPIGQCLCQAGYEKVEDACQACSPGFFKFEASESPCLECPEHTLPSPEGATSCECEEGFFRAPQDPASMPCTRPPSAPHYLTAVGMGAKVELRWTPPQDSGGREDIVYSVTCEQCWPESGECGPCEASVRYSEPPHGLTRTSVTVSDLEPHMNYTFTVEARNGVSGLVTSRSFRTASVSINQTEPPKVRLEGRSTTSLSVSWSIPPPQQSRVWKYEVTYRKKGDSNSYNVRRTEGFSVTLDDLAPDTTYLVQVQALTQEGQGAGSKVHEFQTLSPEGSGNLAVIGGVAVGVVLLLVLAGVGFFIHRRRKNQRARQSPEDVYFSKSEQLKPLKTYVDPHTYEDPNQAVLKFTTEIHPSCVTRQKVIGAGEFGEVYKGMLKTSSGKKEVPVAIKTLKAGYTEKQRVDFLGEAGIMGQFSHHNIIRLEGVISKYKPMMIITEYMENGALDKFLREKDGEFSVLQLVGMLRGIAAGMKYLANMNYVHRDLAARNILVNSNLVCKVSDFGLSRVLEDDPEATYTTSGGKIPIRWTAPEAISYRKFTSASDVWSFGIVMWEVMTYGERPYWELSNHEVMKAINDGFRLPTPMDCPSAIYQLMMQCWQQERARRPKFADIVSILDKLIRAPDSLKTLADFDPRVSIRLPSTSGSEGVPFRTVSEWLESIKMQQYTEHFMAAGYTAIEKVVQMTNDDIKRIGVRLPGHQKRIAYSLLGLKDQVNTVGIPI

# Block 1 — tested at: 0.1 µM
# SMILES: CCOC(=O)c1cc2cc(-c3cc(C(=O)NCc4ccc(C(=O)O)cc4)nn3C)ccc2[nH]1
target,observed,method,relative to,remaining binding
"PIK3C2B (Homo sapiens, UniProt O00750)",cell-free assay,competition with immobilised ligand,,93%
"CDK19 (Homo sapiens, UniProt Q9BWU1)",,KINOMEscan competition,DMSO control,0%
"MAP2K6 (Homo sapiens, UniProt P52564)",cell-free assay,competition with immobilised ligand,,100%
"BTK (Homo sapiens, UniProt Q06187)",cell-free assay,competition with immobilised ligand,,77%
"KIT (Homo sapiens, UniProt P10721, T670I/V559D)",cell-free assay,competition with immobilised ligand,,96%
"MAP4K5 (Homo sapiens, UniProt Q9Y4K4)",cell-free assay,competition with immobilised ligand,,93%
"Ribosomal protein S6 kinase alpha-1, N-terminal kinase domain (RPS6KA1, Homo sapiens, UniProt Q15418)",cell-free assay,competition with immobilised ligand,,97%
"Tyrosine-protein kinase ABL1, phosphorylated (ABL1, Homo sapiens, UniProt P00519, Q252H)",cell-free assay,competition with immobilised ligand,,81%
"CSNK1G1 (Homo sapiens, UniProt Q9HCP0)",cell-free assay,competition with immobilised ligand,,100%
"CHEK1 (Homo sapiens, UniProt O14757)",cell-free assay,competition with immobilised ligand,,100%
"CDK7 (Homo sapiens, UniProt P50613)",cell-free assay,competition with immobilised ligand,,76%
"Ribosomal protein S6 kinase alpha-2, N-terminal kinase domain (RPS6KA2, Homo sapiens, UniProt Q15349)",cell-free assay,competition with immobilised ligand,,100%
"NIM1K (Homo sapiens, UniProt Q8IY84)",cell-free assay,competition with immobilised ligand,,79%
"PIK3CA (Homo sapiens, UniProt P42336, M1043I)",cell-free assay,competition with immobilised ligand,,100%
"ROCK1 (Homo sapiens, UniProt Q13464)",cell-free assay,competition with immobilised ligand,,78%
"SGK3 (Homo sapiens, UniProt Q96BR1)",cell-free assay,competition with immobilised ligand,,82%
"WNK1 (Homo sapiens, UniProt Q9H4A3)",cell-free assay,competition with immobilised ligand,,93%
"EPHA2 (Homo sapiens, UniProt P29317)",cell-free assay,competition with immobilised ligand,,100%

# Block 2 — species: human; matrix: microsomes or S9; tested at: 2 µM; time: 0.5 h
SMILES,remaining compound [%]
C=CCc1c(C)nc2c(-c3ccccc3)cnn2c1NCCCn1ccnc1,70.3
CCc1ccc(S(=O)(=O)C2CS(=O)(=O)CC2NCc2ccccc2C)cc1 (stereo not drawn),0.0405
CCOc1nnc(Cc2ccccc2)c2ccccc12,27.7
CCCn1cnc2cc(-c3noc(-c4ccc(Br)o4)n3)ccc21,36.6
Cc1c(NC(=O)c2cnn3cc(Br)cnc23)c(=O)n(-c2ccccc2)n1C,71.1
CCOC(=O)CNC(=O)N1Cc2c(sc3c2CCCC3)-n2cccc2C1c1ccc(C(C)C)cc1 (stereo not drawn),0.204
CC1CCCC(=O)CCC/C=C/c2cc3c(c(O)c2C(=O)O1)C(c1ccc(OCC(N)=O)cc1)CC(=O)O3 (stereo not drawn),6.05
Oc1cccc(-c2ncc(-c3ccccc3O)o2)c1,3.13

# Block 3 — cell line: A-375; tested at: 100 µM; time: 60 h
Compound,viability [%]
CCOc1nc2cccc(C(=O)O)c2n1Cc1ccc(-c2ccccc2-c2nnn[nH]2)cc1,101
O=C(CCCCCCC(=O)Nc1ccccc1)NO,5.26
C1N2CN3CN1CN(C2)C3,106
CCN1CCN(C(=O)N[C@@H](C(=O)N[C@@H]2C(=O)N3[C@@H]2SC(C)(C)[C@@H]3C(=O)O)c2ccccc2)C(=O)C1=O,104

# Block 4 — observed: enzyme activity; action: inhibitor; tested at: 0.5 µM; relative to: control
# Target: NUAK family SNF1-like kinase 1 (NUAK1, Homo sapiens, UniProt O60285)
# Residues (O60285 1-661): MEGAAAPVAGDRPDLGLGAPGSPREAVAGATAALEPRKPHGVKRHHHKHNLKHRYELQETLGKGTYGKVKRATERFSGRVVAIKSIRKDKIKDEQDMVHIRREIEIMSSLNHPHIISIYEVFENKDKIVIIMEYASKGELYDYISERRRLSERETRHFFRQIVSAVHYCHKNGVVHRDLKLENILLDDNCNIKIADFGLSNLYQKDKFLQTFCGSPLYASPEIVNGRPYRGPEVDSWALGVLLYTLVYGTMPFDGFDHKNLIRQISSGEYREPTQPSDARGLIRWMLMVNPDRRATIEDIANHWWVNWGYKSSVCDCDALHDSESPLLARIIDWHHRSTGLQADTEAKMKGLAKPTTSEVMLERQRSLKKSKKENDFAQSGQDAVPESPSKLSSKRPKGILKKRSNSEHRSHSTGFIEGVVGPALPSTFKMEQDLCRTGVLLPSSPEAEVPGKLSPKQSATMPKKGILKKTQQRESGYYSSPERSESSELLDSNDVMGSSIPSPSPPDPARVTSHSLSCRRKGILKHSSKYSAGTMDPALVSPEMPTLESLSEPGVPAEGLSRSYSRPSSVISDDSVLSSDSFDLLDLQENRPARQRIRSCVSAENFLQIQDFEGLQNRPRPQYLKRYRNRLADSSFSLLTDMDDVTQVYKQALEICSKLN
SMILES,remaining activity
CCN(CC)CCNC(=O)c1c(C)[nH]c(/C=C2\C(=O)Nc3ccc(Cl)cc32)c1C,2.06%
O=C1c2ccccc2-c2n[nH]c3cccc1c23,23.9%
CN(C)C[C@H]1CCn2c(c(C3=C(c4cn(C)c5ccccc45)C(=O)NC3=O)c3ccccc32)C1,90.9%
Cc1cn(-c2cc(NC(=O)c3ccc(C)c(Nc4nccc(-c5cccnc5)n4)c3)cc(C(F)(F)F)c2)cn1,108%
O=c1cc(-c2cccc3c2Sc2ccccc2S3)oc(N2CCOCC2)c1,93.1%

# Mixed results
Compound,cell line,tested at,relative to,measurement,result
CC/C(=C(\c1ccccc1)c1ccc(OCCN(C)C)cc1)c1ccccc1,HepG2,concentration not given,vehicle,viability,0.43%

# Repeated from above (block 1):
target,observed,method,relative to,remaining binding
"Ribosomal protein S6 kinase alpha-1, N-terminal kinase domain (RPS6KA1, Homo sapiens, UniProt Q15418)",cell-free assay,competition with immobilised ligand,,97%
"Tyrosine-protein kinase ABL1, phosphorylated (ABL1, Homo sapiens, UniProt P00519, Q252H)",cell-free assay,competition with immobilised ligand,,81%
"CSNK1G1 (Homo sapiens, UniProt Q9HCP0)",cell-free assay,competition with immobilised ligand,,100%
